# Published values gathered from unrelated publications.
# Each numbered part is a random draw from the data of one study; scales do not carry over between parts.

# Study 1
# Target: Sal-like protein 4, full length isoform B (SALL4, Homo sapiens, UniProt Q9UJQ4-2, residues 1-616)
# Method: universal PBM
# Form: double-stranded DNA, one strand shown
# Medium: in vitro
# Concentration: not given
# Setting: 8-mer, flanks averaged, mean of replicates
# Reading: higher = stronger binding
# Target sequence (chain): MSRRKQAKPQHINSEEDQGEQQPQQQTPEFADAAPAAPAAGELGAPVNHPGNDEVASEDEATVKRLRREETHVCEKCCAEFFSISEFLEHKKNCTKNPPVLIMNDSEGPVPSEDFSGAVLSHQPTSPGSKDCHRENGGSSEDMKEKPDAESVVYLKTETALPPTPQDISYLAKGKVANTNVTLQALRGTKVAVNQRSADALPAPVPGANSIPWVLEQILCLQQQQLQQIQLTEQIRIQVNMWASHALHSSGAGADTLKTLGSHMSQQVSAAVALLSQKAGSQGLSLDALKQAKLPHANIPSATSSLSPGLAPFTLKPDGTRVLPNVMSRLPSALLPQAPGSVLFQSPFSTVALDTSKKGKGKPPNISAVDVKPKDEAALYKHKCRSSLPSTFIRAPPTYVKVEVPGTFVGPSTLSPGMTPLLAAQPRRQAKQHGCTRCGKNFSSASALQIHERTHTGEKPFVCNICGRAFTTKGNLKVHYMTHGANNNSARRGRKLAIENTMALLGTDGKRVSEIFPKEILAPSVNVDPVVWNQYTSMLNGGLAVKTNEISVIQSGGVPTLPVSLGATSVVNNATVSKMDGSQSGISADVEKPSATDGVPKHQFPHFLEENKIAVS
Sequence,E-score
GGGGACGA,-0.197
ATTATTTC,0.363
TCACCGAA,-0.00362
AGAACTAT,0.24
CTGGTACA,0.0445
GTCTCCTA,0.0238
CATGGGAC,-0.194
CGATAACG,-0.0717
TGAAAGAA,0.173
CAGAAGAC,0.00228
GCCGGCTA,-0.182
CAGAAGTC,-0.138
TACGTCAA,0.0702
CACACAGC,-0.0905
CAATACCG,-0.0804
TTCTCAAA,0.268
AATGACGC,-0.00128
GATGACAA,0.17
GCATGCAC,0.0171
CACGCCAA,-0.0906
ATTGTTAA,0.349
ATTCCGCG,-0.227
ATCCTACA,0.0549
CGAGCACG,-0.257
ACACTACA,0.211

# Study 2
# Target: RNA binding protein fox-1 homolog 2, RRM domain, GST-SBP tag (RBFOX2, Homo sapiens, UniProt O43251-10, residues 100-194)
# Method: RNA Bind-n-Seq
# Form: RNA
# Medium: in vitro
# Concentration: 365 nM
# Setting: natural RNA segment, single round, ends assumed
# Baseline: no-protein control
# Reading: higher = stronger binding
# All sequences stand within: GGGAGUUCUACAGUCCGACGAUC … UGGAAUUCUCGGGUGCCAA
# Target sequence (chain): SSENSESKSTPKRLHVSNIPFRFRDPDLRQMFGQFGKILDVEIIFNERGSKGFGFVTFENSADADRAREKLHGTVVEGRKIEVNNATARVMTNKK
Sequence,RBNS enrichment (R)
CCCACUGGGUUUAAGAGCAUCUUGAAUGUAUAAUCCUUUUUGUAACCCAGGUUGGUUUCUACUUUUACCAGUCACCCAAACAUAUUUAUGUUUUUAGUUUUAUGUACUCA,0.906
UGAUUAUUAAGCAGGGUGGAAGUUCAGUAUUUUGUCAUUUAAAAAGAUUAGUUAUAUAAUGUCUGCUUCCAGCCAGUGAGAAACAUCUAGCCAUACCUUUCUUAUGCAAG,0.444
GACUGAACAUGGAUGCCGGAGCAGAGCAUCAAUUCCUUCAUAGAUUCCAAGUCACUCCUCGAUGAAGACUCUUGUUGAGACUUACUAAACACUUUAGGCGCAGUCGGGAG,0.476
UCUUGUGCUACAGGUGGGGCGGAGCCAGCCCCUCACCUUCCUGGUUCCCUGAGGGUCCUCAGGGUGGAGGACAGGUUUGGCCCAGAAAGACUAGCCAGAGGCCUGAUGGU,0.364
GAACCUUAUCAGUGACUUGGCCAACAAGGGAAGCCUUGGGGCCUCAGAAUUCAUUGAAGAUUUGUUUUGGGACAACUGGAAGAAUCAGCACCAUGGAUACUCGCCCGUGG,0.243
AAAACUAUAAUAGUUAACAACUGUUAGUAAGAUAGACCAAUUCUGAUUAGACUUUAUCAGGGAAUCUGUUUAAGAUAUGUUUGGUGACCAAAACGUAUGUGUGAAUGUAG,1.28
GACUCGUGGUGACCUAACCUGAGAAAGAGUGCAAUCAGAUGUUAAAGUAACUAAAUAGACUGCGGCACUUUUUUGCUUUAAACUAGAUCAUCUUAGAUUUGUCGAUACCU,0.357
GCACCCCGGAACCGGCGUCGCUGGCGCAUCCUGGGUGGAGGCAGGCCCCGAGCUCGGGGAAGGGGUUUUCCCUUCCUCUCUGACCCAGAUCUGCGCGCGGCCUAGCCCGG,0.206
UACCGGGAAAGUUGGUUAUCUUGGGGUCUCAGCUUCAUUACUGCUUAGGGUUUCCCUGCCCACUCUGCAGGAGCAGAUGUUGGACAGGUAGCCAGUGGGAUGCCACUGCU,0.269
CUGCCUCUGUUCUUUCAACUCCUUUGAGGCUCAAAAAAAACACAAAGAUCAGAAGCCUUCAGAUAGAGGGUGGUAUUCUGGUAAAGAAGAAAGAGAUAAGGGACGCUACC,0.348
AAGUGAGAGCUUCCUGAGCUUUCUCCUGUCGGUUUGGUCUGUUUUGCCUUCACCCAUAAGCCCCUCGCACUCUGGUGGCAGGUGCCUUGUCCUCAGGGCUACAGCAGUAG,0.413
ACAUAUAAAAAGGAGACAUGAGAAAGUACUUUUCUCUAGAGCUCCAACACUACUGGCUCUUGCUUUUCUCAAUCCCCAAAGCUUCCCUUGUGACUUCUUAAGGCUCUGUA,0.428

# Study 3
# Target: Ras GTPase-activating protein-binding protein 1, C-terminal RGG region (G3BP1, Homo sapiens, UniProt Q13283)
# Sequence of UniProt Q13283 (whole entry, looked up): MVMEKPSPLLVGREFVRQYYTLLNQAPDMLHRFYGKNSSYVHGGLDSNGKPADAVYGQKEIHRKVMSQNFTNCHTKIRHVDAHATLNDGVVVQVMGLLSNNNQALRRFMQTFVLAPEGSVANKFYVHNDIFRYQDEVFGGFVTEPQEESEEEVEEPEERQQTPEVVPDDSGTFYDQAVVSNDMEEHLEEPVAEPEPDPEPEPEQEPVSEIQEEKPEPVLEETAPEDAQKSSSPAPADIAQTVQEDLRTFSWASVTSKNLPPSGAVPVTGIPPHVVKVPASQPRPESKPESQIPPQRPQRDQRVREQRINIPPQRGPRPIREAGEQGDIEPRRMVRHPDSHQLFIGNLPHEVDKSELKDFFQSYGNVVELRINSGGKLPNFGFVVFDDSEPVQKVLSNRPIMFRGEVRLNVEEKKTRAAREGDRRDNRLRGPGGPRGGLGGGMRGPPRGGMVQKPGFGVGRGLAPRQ
# Method: RNA Bind-n-Seq
# Form: RNA
# Medium: in vitro
# Concentration: 1 µM
# Setting: whole 134-nt RNA, ends assumed
# With: 150 mM KCl
# Baseline: input library
# Reading: higher = stronger binding
# All sequences stand within: GGGAGUUCUACAGUCCGACGAUC … UGGAAUUCUCGGGUGUCAAGG
Sequence,log2 enrichment
UGGCUUCCUUCUUUCUAUUCCCCGCCUGCCUUCCAUGGUAGAGGCCAGUGACUUUGAGAUUAAUGGACUGGACUUCAUGGUAAGACCCUC,0.00431
GCAGGAAGUAAAAACAAAUGGAAAUGCUUCGGAUAGUGGCAGGGGUGGGGUUUGCUAAGGAAAGGGUGGGAUGGGAGUGGGUAAAGAGUU,1.75
GUCCUGUGCUACACAUCGUAUGUACCGAAUCGGAAAAAAAGGUUUUUUUGGAAAAAGGAAAGUAUUAUGUUACGCCGUUCGGAUCUGCAC,-2.12
AAGUCCUGUGCUACACAUCGUAUGUACCGAAUCGGGAAAAAAAGGGAGGGAAAGGGAAAGUAUUAUGUUACGCCGUUCGGAUCUGCACUU,0.761
UCCUGUGCUACACAUCGUAUGUACCGAAUCGGGGAGGGGAAAAAGGGGUUUUUUUGGGGAAAGUAUUAUGUUACGCCGUUCGGAUCUGCA,1.57
UAACUUUAGAGGAGGAUCUGAUGGAUAUGGCAGUGGACGUGGAUUUGGGGAUGGCUAUAUUGGGUAUGGAGGAGGACCUGGAGGUGGCAA,-0.952
UCCUCAAGUCCUGUGCUACACAUCGUAUGUACCGAAUCGGGUGGGUGGUGGGAAAGUAUUAUGUUACGCCGUUCGGAUCUGCACUUCCAG,1.27
AAGUCCUGUGCUACACAUCGUAUGUACCGAAUCGGGGAAAGGGGAAAGGGGAAAGGGAAAGUAUUAUGUUACGCCGUUCGGAUCUGCACU,0.961
AAGUCCUGUGCUACACAUCGUAUGUACCGAAUCGGGGUGGGGUUUGGGGAAAGGGGAAAGUAUUAUGUUACGCCGUUCGGAUCUGCACUU,3.18
CUCAAGUCCUGUGCUACACAUCGUAUGUACCGAAUCGGCCGGGCCGGGCCGGGAAAGUAUUAUGUUACGCCGUUCGGAUCUGCACUUCCA,-1.37
CCUGUGCUACACAUCGUAUGUACCGAAUCGGGCCCCCCCGGGCCCCCCCGGGCCCCCCCGGAAAGUAUUAUGUUACGCCGUUCGGAUCUG,-1.52
CACAGACAACACGCACCCACACAGACACAGAGGGUAGGGGUUGGGAUGGGGACAGGGUGCACAGCAGGGCGGGGUAGGACCCCAGCCCCU,-0.199
UGUGCUACACAUCGUAUGUACCGAAUCGGGGUUUUUGGGGUUUUUUUGGGGUUUUUUUGGGGAAAGUAUUAUGUUACGCCGUUCGGAUCU,0.39
AGUCCUGUGCUACACAUCGUAUGUACCGAAUCGGGGAGGGGUUUGGGGUUUUUGGGGAAAGUAUUAUGUUACGCCGUUCGGAUCUGCACU,2.22

# Study 4
# Target: RING finger protein unkempt homolog, zinc fingers 1-6, GST-SBP tag (UNK, Homo sapiens, UniProt Q9C0B0, residues 30-357)
# Method: RNA Bind-n-Seq
# Form: RNA
# Medium: in vitro
# Concentration: not given
# Setting: RNA with constant flanks, human and mouse sites, ends assumed
# Baseline: input RNA pool
# Reading: higher = stronger binding
# All sequences stand within: GGGAGUUCUACAGUCCGACGAUC … CAACAGAGGAUUGAGCAUCA
# Target sequence (chain): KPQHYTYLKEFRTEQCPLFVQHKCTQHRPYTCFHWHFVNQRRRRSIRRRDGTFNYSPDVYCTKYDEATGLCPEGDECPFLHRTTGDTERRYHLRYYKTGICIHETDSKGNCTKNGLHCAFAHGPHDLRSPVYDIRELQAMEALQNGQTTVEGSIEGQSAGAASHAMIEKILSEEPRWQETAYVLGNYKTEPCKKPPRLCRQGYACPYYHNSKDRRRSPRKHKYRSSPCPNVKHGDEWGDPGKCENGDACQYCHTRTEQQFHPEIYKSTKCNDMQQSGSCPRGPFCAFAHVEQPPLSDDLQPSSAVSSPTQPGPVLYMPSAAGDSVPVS
Sequence,bound/input enrichment
UUCUACUUUGGCUCCCUAAAGCUGAAUUCAAUUCACAUCUCUCAGAGGUUCACCGUAGACAGCUUUGGAAACUACGCUUCCUGUGGACAAAUUGACUUCUCCUGAGGUGGAUCUUGGAAA,0.0906 ratio
AAUGGAAACAUGAAUAAUGUUGUAACUCGAAGAUUUAGCAAAGCUGACACAAUAGAUACAAUUGAAAAGGAAAUAAGAAAAAUCUUCAGUAUUCCAGAUGAAAAGGAGACCAGAUUGUGG,0.605 ratio
UGGCUACAAAAGAAGAGAAGAAUAAAACUCUAUCAGAAACCAGAAGGAAAUCACAUUAUCAAGGUUGGAAUUUAUCUUUUGGAAGCUGGCCUAGCAAAACUAGACUUCUUGAGUGAUGCA,0.345 ratio
UACAGCACCGUCUCUGGUGGCUACGCGGAAUUUGCUCUUGCAGCCGAUGACACUAUCUACCCCCUGCCCGAGACACUGAACUUCAGGCAGGGGGCUGCCCUGGGGAUCCCGUACUUCACG,0.0833 ratio
GCCAUUUUUCCAGAUGGGACUCACAAUGACACAUGGCAGUGCCAAGGCUAUUUCACUGCACUUGAACAGUUCAUCAAAGAAGUCGUAAAGAGCCAUUCUCCUGAAGAAAUGGCAAAAACU,0.117 ratio
GUGUGCAAAAGCAAGAAGUCCUGGCAAGCGAGACACACUGGUAUUAAGAUUGUACAACAGAUAGCUAUUCUUAUGGGCUGUGCCAUCUUGCCACAUCUUAGAAGUUUAGUUGAAAUCAUU,6.24 ratio
AUUUUUGGAAAGGUUCAAGGGGUGUUUUUCCGCAAGUACACUCAGGCUGAGGGUAAAAAGCUAGGUUUGGUGGGCUGGGUUCAGAACACCGACCGGGGCACCGUGCAAGGGCAACUGCAG,0.312 ratio
AGACAUUCAACACCUUUACAUUUAGCAGCUGGUUAUAAUAAUUUAGAAGUUGCAGAGUAUUUGUUACAACACGGAGCUGAUGUGAAUGCCCAAGACAAAGGAGGACUUAUUCCUUUACAU,0.574 ratio
UCGCAAAGAUUUAAGUAUCUUAUAAGAACUGUUUGCCAGUGCAAUUAUGAGAAGCUGUUUUAGGUUAUGUGAAAGAGAUGUUUCCUCAUCUCUAAGGCUUACCAGAAGCUCUGAUUUGAA,0.162 ratio
AGCAUGGUUCGGCAUUCUUCAUCUCCAUAUGUAGUAUAUCCUUCGGAUAAGCCUUUCCUUAAUAGUGAUCUACGACGCUCCCCAAGUAAGCCUACACUUGCCUAUCCAGAAAGCAACAGC,0.302 ratio
GUGACUAACUUGUUGCAGUUGCCUCAGUACUUUGAUUUGGAAAUAUAUACCACUGGACGAUUAGAAAAGCAUUUGGAUGCCUUAUUGCGACAGAUCCGGAAUAUUGUAGAGAAGCACACA,0.848 ratio

# For quick reference, copied from above (study 4):
Sequence,bound/input enrichment
AUUUUUGGAAAGGUUCAAGGGGUGUUUUUCCGCAAGUACACUCAGGCUGAGGGUAAAAAGCUAGGUUUGGUGGGCUGGGUUCAGAACACCGACCGGGGCACCGUGCAAGGGCAACUGCAG,0.312 ratio
AGACAUUCAACACCUUUACAUUUAGCAGCUGGUUAUAAUAAUUUAGAAGUUGCAGAGUAUUUGUUACAACACGGAGCUGAUGUGAAUGCCCAAGACAAAGGAGGACUUAUUCCUUUACAU,0.574 ratio
UCGCAAAGAUUUAAGUAUCUUAUAAGAACUGUUUGCCAGUGCAAUUAUGAGAAGCUGUUUUAGGUUAUGUGAAAGAGAUGUUUCCUCAUCUCUAAGGCUUACCAGAAGCUCUGAUUUGAA,0.162 ratio
AGCAUGGUUCGGCAUUCUUCAUCUCCAUAUGUAGUAUAUCCUUCGGAUAAGCCUUUCCUUAAUAGUGAUCUACGACGCUCCCCAAGUAAGCCUACACUUGCCUAUCCAGAAAGCAACAGC,0.302 ratio
GUGACUAACUUGUUGCAGUUGCCUCAGUACUUUGAUUUGGAAAUAUAUACCACUGGACGAUUAGAAAAGCAUUUGGAUGCCUUAUUGCGACAGAUCCGGAAUAUUGUAGAGAAGCACACA,0.848 ratio
